Experimental data gathered from unrelated publications.
Lines come from different studies, so protocols differ. ± marks the error that the study gave.
CDK2 with cyclin A2: Cyclin-dependent kinase 2, with cyclin A2 (CDK2, Homo sapiens, UniProt P24941)
DCLK2: Serine/threonine-protein kinase DCLK2 (DCLK2, Homo sapiens, UniProt Q8N568)
UniProt Q8N568, sequence (whole entry, looked up): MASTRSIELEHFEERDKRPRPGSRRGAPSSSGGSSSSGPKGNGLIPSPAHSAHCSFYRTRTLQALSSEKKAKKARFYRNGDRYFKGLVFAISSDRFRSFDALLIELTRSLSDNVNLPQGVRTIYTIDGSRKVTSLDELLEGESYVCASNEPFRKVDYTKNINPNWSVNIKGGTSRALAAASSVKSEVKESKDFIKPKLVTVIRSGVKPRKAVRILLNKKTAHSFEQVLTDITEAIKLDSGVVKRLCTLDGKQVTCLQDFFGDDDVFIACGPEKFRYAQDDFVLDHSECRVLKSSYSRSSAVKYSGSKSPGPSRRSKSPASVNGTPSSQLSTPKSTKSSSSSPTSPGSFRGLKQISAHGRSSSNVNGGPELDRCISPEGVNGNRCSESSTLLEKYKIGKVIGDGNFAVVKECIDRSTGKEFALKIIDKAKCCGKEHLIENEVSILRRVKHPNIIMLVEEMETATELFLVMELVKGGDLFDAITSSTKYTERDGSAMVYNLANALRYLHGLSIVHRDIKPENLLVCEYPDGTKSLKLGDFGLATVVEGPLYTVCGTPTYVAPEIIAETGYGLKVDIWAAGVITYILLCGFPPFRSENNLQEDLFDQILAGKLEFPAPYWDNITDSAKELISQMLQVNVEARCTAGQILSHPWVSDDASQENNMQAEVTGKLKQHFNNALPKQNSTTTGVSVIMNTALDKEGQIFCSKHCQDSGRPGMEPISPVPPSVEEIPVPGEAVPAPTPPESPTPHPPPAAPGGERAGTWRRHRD
CDC42BPA: Serine/threonine-protein kinase MRCK alpha (CDC42BPA, Homo sapiens, UniProt Q5VT25)
UniProt Q5VT25, sequence (whole entry, looked up): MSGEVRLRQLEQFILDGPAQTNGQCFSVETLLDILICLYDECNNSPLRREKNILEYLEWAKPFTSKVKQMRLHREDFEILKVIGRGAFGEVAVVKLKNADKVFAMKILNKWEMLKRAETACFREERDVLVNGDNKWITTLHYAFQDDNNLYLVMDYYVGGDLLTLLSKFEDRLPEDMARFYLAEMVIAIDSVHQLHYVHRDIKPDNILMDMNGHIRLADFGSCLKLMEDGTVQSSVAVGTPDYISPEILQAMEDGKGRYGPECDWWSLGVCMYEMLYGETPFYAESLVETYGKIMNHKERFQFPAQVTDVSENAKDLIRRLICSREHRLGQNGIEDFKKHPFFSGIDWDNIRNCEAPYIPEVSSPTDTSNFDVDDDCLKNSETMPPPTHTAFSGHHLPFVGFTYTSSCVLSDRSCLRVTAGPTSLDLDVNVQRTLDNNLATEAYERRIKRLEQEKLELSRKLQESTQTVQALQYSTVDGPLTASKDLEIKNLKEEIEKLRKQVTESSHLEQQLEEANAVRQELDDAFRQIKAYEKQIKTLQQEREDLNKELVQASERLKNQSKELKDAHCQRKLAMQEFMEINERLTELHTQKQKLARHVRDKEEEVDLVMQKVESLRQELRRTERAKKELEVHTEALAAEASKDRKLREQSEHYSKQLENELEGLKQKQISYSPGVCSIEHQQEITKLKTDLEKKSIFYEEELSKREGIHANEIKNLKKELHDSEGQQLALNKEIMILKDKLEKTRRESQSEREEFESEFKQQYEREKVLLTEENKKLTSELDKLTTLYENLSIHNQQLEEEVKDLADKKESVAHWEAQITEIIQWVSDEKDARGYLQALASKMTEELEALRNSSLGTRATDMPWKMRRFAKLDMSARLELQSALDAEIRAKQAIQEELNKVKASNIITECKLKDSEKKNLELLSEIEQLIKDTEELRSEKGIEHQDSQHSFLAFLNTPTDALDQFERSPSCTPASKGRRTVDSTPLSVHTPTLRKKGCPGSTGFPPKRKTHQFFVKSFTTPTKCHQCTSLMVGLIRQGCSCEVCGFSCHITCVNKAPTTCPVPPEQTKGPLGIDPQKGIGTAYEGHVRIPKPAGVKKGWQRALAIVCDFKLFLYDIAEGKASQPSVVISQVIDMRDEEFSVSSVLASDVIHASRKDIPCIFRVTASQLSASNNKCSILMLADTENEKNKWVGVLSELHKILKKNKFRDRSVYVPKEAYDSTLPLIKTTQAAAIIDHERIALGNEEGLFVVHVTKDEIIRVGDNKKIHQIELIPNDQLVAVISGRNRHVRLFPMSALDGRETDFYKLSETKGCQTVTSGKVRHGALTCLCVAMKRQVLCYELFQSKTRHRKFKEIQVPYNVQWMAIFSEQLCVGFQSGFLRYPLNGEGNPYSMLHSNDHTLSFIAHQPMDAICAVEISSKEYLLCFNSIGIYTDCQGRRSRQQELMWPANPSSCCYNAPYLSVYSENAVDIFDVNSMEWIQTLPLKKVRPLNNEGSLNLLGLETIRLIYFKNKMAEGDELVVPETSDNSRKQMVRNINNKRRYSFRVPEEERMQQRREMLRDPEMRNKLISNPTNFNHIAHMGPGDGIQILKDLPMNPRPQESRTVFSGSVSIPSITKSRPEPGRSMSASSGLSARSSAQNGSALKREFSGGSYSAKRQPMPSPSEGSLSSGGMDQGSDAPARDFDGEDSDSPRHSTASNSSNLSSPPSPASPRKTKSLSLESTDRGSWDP
ERBB4: Receptor tyrosine-protein kinase erbB-4 (ERBB4, Homo sapiens, UniProt Q15303)
UniProt Q15303, sequence (whole entry, looked up): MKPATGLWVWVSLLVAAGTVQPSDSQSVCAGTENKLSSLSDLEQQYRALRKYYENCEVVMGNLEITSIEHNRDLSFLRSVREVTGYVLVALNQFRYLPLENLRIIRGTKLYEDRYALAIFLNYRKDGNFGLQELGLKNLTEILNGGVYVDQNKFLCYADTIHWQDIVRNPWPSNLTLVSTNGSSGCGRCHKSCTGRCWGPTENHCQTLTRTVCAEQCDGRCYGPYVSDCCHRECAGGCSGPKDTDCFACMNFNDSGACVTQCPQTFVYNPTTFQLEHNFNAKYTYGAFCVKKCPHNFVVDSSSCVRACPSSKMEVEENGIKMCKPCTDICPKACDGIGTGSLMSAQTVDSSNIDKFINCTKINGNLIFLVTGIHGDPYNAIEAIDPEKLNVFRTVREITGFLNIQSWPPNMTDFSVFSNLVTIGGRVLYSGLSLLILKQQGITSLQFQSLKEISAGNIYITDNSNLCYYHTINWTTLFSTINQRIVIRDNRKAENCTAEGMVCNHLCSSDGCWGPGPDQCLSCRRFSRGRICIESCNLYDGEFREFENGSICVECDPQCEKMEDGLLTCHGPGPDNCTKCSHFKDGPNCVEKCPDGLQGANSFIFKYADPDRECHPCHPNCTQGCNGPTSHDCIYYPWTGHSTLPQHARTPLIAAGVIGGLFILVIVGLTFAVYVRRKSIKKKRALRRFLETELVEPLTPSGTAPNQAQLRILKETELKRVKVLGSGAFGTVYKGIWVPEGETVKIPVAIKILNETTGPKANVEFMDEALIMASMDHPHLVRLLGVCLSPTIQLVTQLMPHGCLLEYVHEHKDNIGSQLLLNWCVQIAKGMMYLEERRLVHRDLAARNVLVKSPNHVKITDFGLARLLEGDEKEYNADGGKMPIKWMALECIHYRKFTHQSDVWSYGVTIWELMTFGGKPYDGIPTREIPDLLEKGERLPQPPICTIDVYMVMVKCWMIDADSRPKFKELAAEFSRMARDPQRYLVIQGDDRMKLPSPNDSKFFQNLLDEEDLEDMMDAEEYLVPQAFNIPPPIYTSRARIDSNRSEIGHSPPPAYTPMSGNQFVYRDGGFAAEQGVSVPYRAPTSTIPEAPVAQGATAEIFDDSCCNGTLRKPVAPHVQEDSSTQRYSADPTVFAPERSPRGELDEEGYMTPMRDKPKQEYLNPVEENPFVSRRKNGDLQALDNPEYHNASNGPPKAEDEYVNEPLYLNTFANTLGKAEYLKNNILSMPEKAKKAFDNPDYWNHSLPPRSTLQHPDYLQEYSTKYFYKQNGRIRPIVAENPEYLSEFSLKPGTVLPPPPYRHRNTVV
FGFR2: Fibroblast growth factor receptor 2 (FGFR2, Homo sapiens, UniProt P21802)
UniProt P21802, sequence (whole entry, looked up): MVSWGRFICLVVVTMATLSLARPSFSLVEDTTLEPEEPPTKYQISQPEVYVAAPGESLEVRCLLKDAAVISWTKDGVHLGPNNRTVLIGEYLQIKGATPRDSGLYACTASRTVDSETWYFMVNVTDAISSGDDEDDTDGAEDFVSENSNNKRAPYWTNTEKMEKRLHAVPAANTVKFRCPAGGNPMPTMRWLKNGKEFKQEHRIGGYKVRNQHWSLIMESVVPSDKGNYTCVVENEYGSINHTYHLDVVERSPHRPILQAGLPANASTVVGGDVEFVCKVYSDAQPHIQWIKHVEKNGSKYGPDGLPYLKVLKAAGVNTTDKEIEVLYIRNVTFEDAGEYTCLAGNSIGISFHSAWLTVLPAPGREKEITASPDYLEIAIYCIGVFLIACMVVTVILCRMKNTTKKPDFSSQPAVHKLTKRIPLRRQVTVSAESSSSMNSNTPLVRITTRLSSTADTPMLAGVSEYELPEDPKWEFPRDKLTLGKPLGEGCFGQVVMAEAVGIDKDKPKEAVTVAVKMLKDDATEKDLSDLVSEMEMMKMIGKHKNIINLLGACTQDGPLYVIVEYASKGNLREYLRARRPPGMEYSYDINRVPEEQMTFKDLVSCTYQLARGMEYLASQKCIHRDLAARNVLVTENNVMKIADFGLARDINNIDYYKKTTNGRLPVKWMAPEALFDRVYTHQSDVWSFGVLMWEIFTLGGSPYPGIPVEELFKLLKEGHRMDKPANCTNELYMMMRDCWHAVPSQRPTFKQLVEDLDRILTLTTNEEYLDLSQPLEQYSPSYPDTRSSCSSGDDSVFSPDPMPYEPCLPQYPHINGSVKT
HIPK2: Homeodomain-interacting protein kinase 2 (HIPK2, Homo sapiens, UniProt Q9H2X6)
UniProt P45984, sequence (whole entry, looked up): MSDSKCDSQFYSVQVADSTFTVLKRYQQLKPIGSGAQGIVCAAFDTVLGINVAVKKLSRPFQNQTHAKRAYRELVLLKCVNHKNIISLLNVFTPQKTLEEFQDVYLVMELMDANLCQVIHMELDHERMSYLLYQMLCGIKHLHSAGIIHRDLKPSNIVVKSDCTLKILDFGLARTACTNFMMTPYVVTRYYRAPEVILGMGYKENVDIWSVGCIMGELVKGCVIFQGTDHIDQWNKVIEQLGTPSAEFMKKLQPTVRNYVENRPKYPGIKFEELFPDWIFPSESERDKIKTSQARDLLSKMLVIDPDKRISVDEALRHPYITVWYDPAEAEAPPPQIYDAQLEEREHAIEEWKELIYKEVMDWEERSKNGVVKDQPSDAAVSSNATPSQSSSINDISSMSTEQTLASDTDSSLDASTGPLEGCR

SMILES = CC(=O)Nc1c(N)nc(SCC(=O)N/N=C/c2ccc([N+](=O)[O-])cc2)[nH]c1=O; target = CDK2 with cyclin A2; test = kinase activity; conditions = 20 nM; remaining activity = 78.7%
SMILES = COc1cc(N2CCN(C)CC2)ccc1Nc1nc(N)n(C(=S)NCc2c(Cl)cccc2Cl)n1; target = DCLK2; test = enzyme activity; conditions = 10 µM; scale = reference: control; remaining activity = 0.1%
SMILES = O=C(NC1CCC1)c1ccc2nc(-c3cccc(NS(=O)(=O)NCCN4CCCCC4)c3)cn2c1; target = Serine/threonine-protein kinase WNK1 (WNK1, Homo sapiens, UniProt Q9H4A3); test = enzyme activity; conditions = 10 µM; remaining activity = 82%
SMILES = Nc1ncc2c(n1)-c1c([nH]c3ccc(-c4ccc(F)cc4)cc13)CCC2; target = Serine/threonine-protein kinase TAO2 (TAOK2, Homo sapiens, UniProt Q9UL54); test = kinase activity, inhibitor, radiometric; conditions = 1 µM, together with: ATP at Km; remaining activity = 77%
SMILES = O=C1NC(=O)/C(=C/c2ccc(-c3ccc(F)cc3O)o2)S1; target = Serine/threonine-protein kinase BRSK2 (BRSK2, Homo sapiens, UniProt Q8IWQ3); test = enzyme activity; conditions = 10 µM; remaining activity = 44%
SMILES = CC(C)(C)c1nc(-c2cccc(NS(=O)(=O)c3c(F)cccc3F)c2F)c(-c2ccnc(N)n2)s1; target = Protein kinase C beta type, isoform beta-I (PRKCB, Homo sapiens, UniProt P05771); test = kinase activity, radiometric 33PanQinase; conditions = 1 µM; scale = reference: DMSO; remaining activity = 99%
SMILES = NC/C(=C\F)COc1cccc(Cn2c(=S)[nH]c(=O)c3[nH]cnc32)c1; target = Peroxidasin homolog (PXDN, Homo sapiens, UniProt Q92626); test = Amplex UltraRed; conditions = 50 µM, mean of replicates; scale = reference: control; remaining activity = 10.2%
SMILES = Cc1cc(NC(=O)c2cccc(NC(=O)/C=C/CN(C)C)c2)ccc1Nc1nccc(-c2cccnc2)n1; target = Mitogen-activated protein kinase 9 (MAPK9, Homo sapiens, UniProt P45984); test = enzyme activity, inhibitor; conditions = 0.02032 µM, unit not given; scale = reference: vehicle; remaining activity = 0.621
SMILES = Cc1cc(Nc2cc(N3CCN(C)CC3)nc(Sc3ccc(NC(=O)C4CC4)cc3)n2)[nH]n1; target = DCLK2; test = kinase activity, KinaseProfiler; conditions = 0.03 µM, species human; scale = reference: control; remaining activity = 101%
SMILES = COc1cc(Nc2ncc3c(n2)-c2ccc(Cl)cc2C(c2c(F)cccc2OC)=NC3)ccc1C(=O)O; target = KDR; test = kinase activity; conditions = 1 µM; remaining activity = 65%
SMILES = CC(C)Oc1cc(N2CCN(C)CC2)ccc1Nc1nc(N)n(C(=O)NCc2ccccc2S(=O)(=O)C(C)C)n1; target = CDC42BPA; test = enzyme activity; conditions = 10 µM; scale = reference: control; remaining activity = 23%
SMILES = CNC(=O)c1cc(Oc2ccc(NC(=O)Nc3ccc(Cl)c(C(F)(F)F)c3)cc2)ccn1; target = CDK2 with cyclin A2; test = kinase activity, inhibitor, ADP-Glo kinase; conditions = 10 nM; remaining activity = 63.3%
SMILES = COc1cc(N2CCN(C)CC2)ccc1Nc1nc(N)n(C(=O)NCc2ccccc2S(=O)(=O)C(C)C)n1; target = Insulin-like growth factor 1 receptor (IGF1R, Homo sapiens, UniProt P08069); test = enzyme activity; conditions = 10 µM; scale = reference: control; remaining activity = 0.7%
SMILES = C=CC(=O)N1CCC[C@@H](n2nc(-c3ccc(Oc4ccccc4)cc3)c3c(N)ncnc32)C1; target = ERBB4; test = kinase activity, inhibitor, HotSpot radiometric; conditions = 100 nM, together with: ATP 10 µM; remaining activity = 1.9 ± 0.3%
SMILES = C=CC(=O)N1CCC[C@@H](n2nc(-c3ccc(Oc4ccccc4)cc3)c3c(N)ncnc32)C1; target = ERBB4; conditions = 10 µM; remaining activity = 21.7%
SMILES = CNc1ncc2c(/C=C/C(=O)N3CCC(OC)CC3)nn(Cc3cccc(C(F)(F)F)c3)c2n1; target = Ephrin type-A receptor 3 (EPHA3, Homo sapiens, UniProt P29320); test = kinase activity, inhibitor; conditions = 1 µM; scale = reference: untreated control; remaining activity = 90%
SMILES = C=CC(=O)N1CCC([C@@H]2CCNc3c(C(N)=O)c(-c4ccc(Oc5ccccc5)cc4)nn32)CC1; target = FGFR2; test = kinase activity, inhibitor, HotSpot radiometric; conditions = 100 nM, together with: ATP 10 µM; remaining activity = 94.3 ± 0.3%
SMILES = CCOc1cc(N2CCN(C)CC2)ccc1Nc1nc(N)n(C(=O)NCc2ccccc2S(=O)(=O)C(C)C)n1; target = CDC42BPA; test = enzyme activity; conditions = 10 µM; scale = reference: control; remaining activity = 19%
SMILES = COc1cc(-c2cncc3c2CN(C)Cc2cc(N4CCNCC4)ccc2-3)cc(OC)c1OC; target = HIPK2; test = kinase activity; conditions = 1 µM, human enzyme, together with: ATP 10 µM; scale = reference: DMSO control; remaining activity = 110%
SMILES = O=C(O)c1ccc(Nc2ncc3c(n2)-c2ccc(Cl)cc2C(c2c(F)cccc2F)=NC3)cc1; target = FGFR4(h); test = kinase activity; conditions = 1 µM; remaining activity = 115%
SMILES = Cc1ccc(NC(=O)c2ccc(C)c(C(F)(F)F)c2)cc1C#Cc1nn(C2CCC(O)CC2)c2ncnc(N)c12 (stereo not drawn); target = ERK2, human; conditions = 10 µM, together with: 10 µM ATP; remaining activity = 87%
SMILES = COc1ccc(F)cc1C(=O)NCc1ccc(-c2nn([C@@H](C)C(F)(F)F)c(N)c2C(N)=O)cc1; target = Receptor-interacting serine/threonine-protein kinase 3 (RIPK3, Homo sapiens, UniProt Q9Y572); test = kinase activity, inhibitor, HotSpot radiometric; conditions = 1000 nM, together with: ATP at Km; remaining activity = 68.3 ± 1.9%
SMILES = CC(=O)Nc1c(N)nc(SCC(=O)NN)[nH]c1=O; target = CDK2 with cyclin A2; test = kinase activity; conditions = 10 nM; remaining activity = 77%
SMILES = CC(C)OCCn1c(=S)[nH]c(=O)c2[nH]ccc21; target = Myeloperoxidase (MPO, Homo sapiens, UniProt P05164); test = LDL lipid peroxidation, inhibitor, cholesteryl ester hydroperoxide; conditions = 0.1235 µM; remaining activity = 93.5%
SMILES = O=C(N/N=C/c1ccc2cc[nH]c2c1)c1cc2c(s1)CCCC2; target = 1-deoxy-D-xylulose-5-phosphate synthase (dxs, Deinococcus radiodurans, UniProt Q9RUB5); test = enzyme activity, partial inhibitor; conditions = concentration not given; remaining activity = 40%
SMILES = COc1cc(F)ccc1-c1ncnc(Nc2cccc(C[S@](C)(=N)=O)c2)n1; target = HIPK2; test = kinase activity; conditions = 10 µM, together with: 10 µM ATP; remaining activity = 93%
SMILES = CC#CC(=O)N1CCC[C@H]1c1nc(-c2ccc(C(=O)Nc3ccccn3)cc2)c2c(N)nccn12; target = FGFR2; test = kinase activity, inhibitor, HotSpot radiometric; conditions = 100 nM, together with: ATP 10 µM; remaining activity = 99.3 ± 1.5%

For quick reference, copied from above:
SMILES = COc1cc(N2CCN(C)CC2)ccc1Nc1nc(N)n(C(=O)NCc2ccccc2S(=O)(=O)C(C)C)n1; target = Insulin-like growth factor 1 receptor (IGF1R, Homo sapiens, UniProt P08069); test = enzyme activity; conditions = 10 µM; scale = reference: control; remaining activity = 0.7%
SMILES = Nc1ncc2c(n1)-c1c([nH]c3ccc(-c4ccc(F)cc4)cc13)CCC2; target = Serine/threonine-protein kinase TAO2 (TAOK2, Homo sapiens, UniProt Q9UL54); test = kinase activity, inhibitor, radiometric; conditions = 1 µM, together with: ATP at Km; remaining activity = 77%
SMILES = NC/C(=C\F)COc1cccc(Cn2c(=S)[nH]c(=O)c3[nH]cnc32)c1; target = Peroxidasin homolog (PXDN, Homo sapiens, UniProt Q92626); test = Amplex UltraRed; conditions = 50 µM, mean of replicates; scale = reference: control; remaining activity = 10.2%
SMILES = O=C1NC(=O)/C(=C/c2ccc(-c3ccc(F)cc3O)o2)S1; target = Serine/threonine-protein kinase BRSK2 (BRSK2, Homo sapiens, UniProt Q8IWQ3); test = enzyme activity; conditions = 10 µM; remaining activity = 44%
